Measurements of several laboratories.
Each line is one published result; not all experiments were run side by side. Several values in a cell are separate wells, animals, samples, runs or records.

CC(C)(O)Cn1nc(-c2ccc3nc(OC4CC4)ccc3c2)c2c(N)ncnc21 — CC50 (HepG2; cytotoxicity): > 40 µM
Cc1cccc2c1[nH]c1c(-c3ccc(Cl)c(Cl)c3)nc(C(=O)NCCNCCO)cc12 — CC50 (HepG2; cytotoxicity): 9.8 µM and 9.78 µM
CC1(C)CC[C@]2(C(=O)O)CC[C@]3(C)C(=CC[C@@H]4[C@@]5(C)CC[C@H](OC(=O)NCc6ccccc6)C(C)(C)[C@@H]5CC[C@]43C)[C@@H]2C1 — cytotoxicity (N2a cells expressing human APP695; MTT; 5 µM): not toxic
CCOc1ccc2cc(-c3nn(CC4CCNCC4)c4ncnc(N)c34)ccc2n1 — GI50 (CRL-8155; cell growth, Alamar Blue; 48 or 72 h, highest tested 30 µM): > 30 µM
O=c1c(OCCCO)c(SSc2cnn(-c3ccccc3)c(=O)c2OCCCO)cnn1-c1ccccc1 — CC50 (HeLa): ~100 µM
NCCNCCSc1ccccc1 — pKa (spectrophotometry; pH 5.8): 5.88
O=C(NC1CCN(c2ncnc3[nH]cnc23)CC1)c1cccc(S(=O)(=O)Nc2ccc(Cl)cc2)c1 — viability (A549-ACE2; 200 µM): 73.6%
NCCNC(=O)c1cc2c([nH]c3ccccc32)c(-c2ccc(C(F)(F)F)cc2)n1 — CC50 (HepG2; cytotoxicity): 4.53 µM
[11CH3]Nc1ccc(C(=O)C2CCN(C3Cc4ccccc4CC3O)CC2)cc1 (single isomer, unassigned) — uptake (Sprague-Dawley rat, kidney; 30 min): 0.77 %ID/g
CSC[C@H](NC(=O)Cc1ccc(N)cc1)C(=O)N[C@@H](Cc1ccccc1)[C@H](O)C(=O)N1CSC(C)(C)[C@H]1C(=O)N[C@H]1c2ccccc2C[C@H]1O — cytotoxicity (human foreskin fibroblasts; MTT; up to 25 µM, 2 days): not toxic
C[C@H](CS)C(=O)N[C@H](Cc1c[nH]c2ccccc12)C(=O)O — MIC of meropenem (Escherichia coli; VIM-1 producing; 25 µM, with: meropenem): 4 µg/mL
CCOc1ccc2cc(-c3nn(C(C)(C)C)c(N)c3C(N)=O)cnc2c1 — cytotoxicity (MARC145 uninfected; XTT; 5 µM, 72 h; baseline: DMSO): 5.2%
CCOc1ccc2cc(-c3nn(CC4CCNCC4)c4ncnc(N)c34)ccc2c1 — GI50 (CRL-8155; cell growth, Alamar Blue; 48 or 72 h, highest tested 30 µM): > 30 µM
C=CC(=O)Nc1cc(-n2c(=O)ccc3cnc4ccc(-c5cn[nH]c5)cc4c32)ccc1C — colony formation (normal bone marrow cells; 1 µM): no inhibition
CCOc1c(SSc2cnn(-c3ccccc3)c(=O)c2OCC)cnn(-c2ccccc2)c1=O — CC50 (HeLa): ~100 µM
CC(=O)OC1CC[C@H]2C3=C(CC[C@]12C)[C@]1(C)c2c(coc2C3=O)[C@@H](OC(C)=O)[C@@H]2O[C@@H]21 (some centres unmarked) — EC50 (MDA-MB-231; cytotoxicity, SRB; 72 h): 0.971 µM
Cc1ccccc1S(=O)(=O)Nc1cccc(C(=O)NC2CCN(c3ncnc4[nH]cnc34)CC2)c1 — viability (A549-ACE2; 22.22 µM): 93.4%

A few entries again:
NCCNCCSc1ccccc1 — pKa (spectrophotometry; pH 5.8): 5.88
CSC[C@H](NC(=O)Cc1ccc(N)cc1)C(=O)N[C@@H](Cc1ccccc1)[C@H](O)C(=O)N1CSC(C)(C)[C@H]1C(=O)N[C@H]1c2ccccc2C[C@H]1O — cytotoxicity (human foreskin fibroblasts; MTT; up to 25 µM, 2 days): not toxic
